Published values from different studies.
Lines come from different studies, so protocols differ. Numbers after ± are the reported error.
CDK2: Cyclin-dependent kinase 2 (CDK2, Homo sapiens, UniProt P24941)
DRD3: D(3) dopamine receptor (DRD3, Homo sapiens, UniProt P35462)
UniProt P35462, sequence (whole entry, looked up): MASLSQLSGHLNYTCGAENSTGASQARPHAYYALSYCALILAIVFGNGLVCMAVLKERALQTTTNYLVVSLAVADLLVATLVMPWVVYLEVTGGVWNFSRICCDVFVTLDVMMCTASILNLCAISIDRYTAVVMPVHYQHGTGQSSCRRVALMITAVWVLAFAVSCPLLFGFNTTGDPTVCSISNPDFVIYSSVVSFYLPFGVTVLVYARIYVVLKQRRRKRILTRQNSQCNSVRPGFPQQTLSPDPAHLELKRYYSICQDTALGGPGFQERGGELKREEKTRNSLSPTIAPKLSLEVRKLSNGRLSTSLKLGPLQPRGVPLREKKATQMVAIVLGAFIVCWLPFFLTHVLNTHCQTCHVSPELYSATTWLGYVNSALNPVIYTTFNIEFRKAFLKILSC
SLC10A1: Hepatic sodium/bile acid cotransporter (SLC10A1, Homo sapiens, UniProt Q14973)
UniProt Q14973, sequence (whole entry, looked up): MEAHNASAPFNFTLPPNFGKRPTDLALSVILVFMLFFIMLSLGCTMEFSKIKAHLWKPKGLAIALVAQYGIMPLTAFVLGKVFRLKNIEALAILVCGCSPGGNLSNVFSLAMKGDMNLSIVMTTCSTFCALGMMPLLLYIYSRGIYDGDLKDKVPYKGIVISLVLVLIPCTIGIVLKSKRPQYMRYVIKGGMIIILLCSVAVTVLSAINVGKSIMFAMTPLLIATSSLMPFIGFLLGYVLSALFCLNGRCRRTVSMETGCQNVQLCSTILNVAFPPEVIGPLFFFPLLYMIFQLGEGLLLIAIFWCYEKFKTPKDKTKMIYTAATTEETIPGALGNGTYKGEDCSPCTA
ESR1: Estrogen receptor (ESR1, Homo sapiens, UniProt P03372)
UniProt P03372, sequence (whole entry, looked up): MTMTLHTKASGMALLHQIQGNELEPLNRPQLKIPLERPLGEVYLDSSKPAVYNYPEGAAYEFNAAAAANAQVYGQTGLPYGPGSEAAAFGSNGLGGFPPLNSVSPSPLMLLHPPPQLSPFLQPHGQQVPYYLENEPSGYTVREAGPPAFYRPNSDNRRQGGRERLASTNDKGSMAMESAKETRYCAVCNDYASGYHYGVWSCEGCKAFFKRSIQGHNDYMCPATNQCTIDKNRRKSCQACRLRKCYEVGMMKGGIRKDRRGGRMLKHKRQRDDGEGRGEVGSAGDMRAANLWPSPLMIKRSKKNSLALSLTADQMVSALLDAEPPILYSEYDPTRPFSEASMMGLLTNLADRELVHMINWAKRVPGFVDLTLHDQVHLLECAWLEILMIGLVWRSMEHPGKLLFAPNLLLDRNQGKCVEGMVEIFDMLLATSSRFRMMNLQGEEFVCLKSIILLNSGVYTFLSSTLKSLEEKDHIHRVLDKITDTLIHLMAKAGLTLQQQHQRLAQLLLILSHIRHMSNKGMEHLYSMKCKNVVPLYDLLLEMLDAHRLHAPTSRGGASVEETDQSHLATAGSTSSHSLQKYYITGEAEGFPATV
CDK2 with cyclin A: Cyclin-dependent kinase 2, with cyclin A (CDK2, Homo sapiens, UniProt P24941)

SMILES	target	test	test system	setting	endpoint	result
CC(=O)Nc1cccc(-c2nnc(SCC(=O)Nc3ccc(C(C)=O)cc3)n2C)c1	CDK2	binding	–	–	Kd	> 100 µM
CC(=O)c1ccc(NS(=O)(=O)c2c(C)[nH]c(C)c2C(=O)N2CCC(F)(F)C2)cc1Cl	DRD3	β-arrestin recruitment, antagonist, PathHunter	–	together with: dopamine EC80	IC50	> 100 µM
COc1cc(OC)c(NC(=O)CSc2nnc(-c3ccncc3)n2C)cc1Cl	CDK2	binding	–	–	Kd	> 100 µM
Cc1[nH]c(C)c(S(=O)(=O)Nc2ccc(C(F)(F)F)c(Cl)c2)c1C(=O)N1CCC(F)(F)C1	DRD3	β-arrestin recruitment, allosteric modulator, operational model of allostery	–	together with: pramipexole	Kb	0.37 µM
Nc1nc(NC2CC2)c2ncn([C@H]3C=C[C@@H](CO)C3)c2n1	SLC10A1	taurocholate uptake, inhibitor	NTCP-expressing HEK293	together with: 10 µM taurocholate	Ki	1290 ± 4140 µM
Oc1cc(O)c2c(c1)O[C@H](c1cc(O)c(O)c(O)c1)[C@@H](O)C2	ESR1	array formation, agonist	ERα-GFP PRL-HeLa	1 h	EC50	6.7 µM
Cc1ccc(NS(=O)(=O)c2c(C(=O)N3CCC(F)(F)C3)c(=O)[nH]n2C)cc1Cl	DRD3	Go activation, antagonist, BRET	–	together with: dopamine	IC50	> 100 µM
CC1(C)S[C@@H]2[C@H](NC(=O)[C@H](N)c3ccccc3)C(=O)N2[C@H]1C(=O)O	SLC10A1	taurocholate uptake, inhibitor	NTCP-expressing HEK293	together with: 10 µM taurocholate	Ki	182 ± 138 µM
Cc1[nH]c(C)c(S(=O)(=O)Nc2ccc(C(F)(F)F)c(Cl)c2)c1C(=O)N1C2CCC1CC2	DRD3	β-arrestin recruitment, antagonist, PathHunter	–	together with: dopamine EC80	IC50	> 100 µM
COCCc1ccc(OCC(O)CNC(C)C)cc1 (stereo not drawn)	SLC10A1	taurocholate uptake, inhibitor	NTCP-expressing HEK293	together with: 10 µM taurocholate	Ki	340 ± 52 µM
O=C(Cc1ccc(OCCN2CCCC2)cc1)Nc1cc(C2CC2)[nH]n1	CDK2	average of ITC, Octet and Thermofluor	–	untagged protein	Kd	1.04 µM
COC(=O)C1=C(C)NC(C)=C(C(=O)OC(C)C)C1c1cccc2nonc12 (stereo not drawn)	SLC10A1	taurocholate uptake, inhibitor	NTCP-expressing HEK293	together with: 10 µM taurocholate	Ki	99.5 ± 14 µM
COc1cc(-c2nnc(SCC(N)=O)n2C)cc(OC)c1OC	CDK2 with cyclin A	–	–	–	Kd	> 100 µM
O=C(c1c[nH]cc1S(=O)(=O)Nc1ccc(C(F)(F)F)c(Cl)c1)N1CCC(F)(F)C1	DRD3	β-arrestin recruitment, antagonist, PathHunter	–	together with: dopamine EC80	IC50	> 100 µM
CC(=O)N1CCN(c2ccc(OCC3COC(Cn4ccnc4)(c4ccc(Cl)cc4Cl)O3)cc2)CC1 (stereo not drawn)	SLC10A1	taurocholate uptake, inhibitor	NTCP-expressing HEK293	together with: 10 µM taurocholate	Ki	98.8 ± 12 µM
Cc1ccc(S(=O)(=O)Nc2c(C)[nH]c(C)c2C(=O)N2CCC(F)(F)C2)cc1	DRD3	Go activation, antagonist, BRET	–	together with: dopamine	IC50	> 100 µM
O=C(/C=C/c1ccc(O)cc1)c1c(O)cc(O)cc1O	ESR1	array formation, agonist	ERα-GFP PRL-HeLa	1 h	EC50	2.05 µM
COc1ccc2c(C)nc(Nc3nc(C)cc(O)n3)nc2c1	CDK2 with cyclin A	–	–	–	Kd	> 100 µM
CC(C(=O)O)c1cccc(C(=O)c2ccccc2)c1 (stereo not drawn)	SLC10A1	taurocholate uptake, inhibitor	NTCP-expressing HEK293	together with: 10 µM taurocholate	Ki	361 ± 178 µM
CCN(CC)C(=O)c1c(C)[nH]c(C)c1S(=O)(=O)Nc1ccc(C(F)(F)F)c(Cl)c1	DRD3	β-arrestin recruitment, antagonist, PathHunter	–	together with: dopamine EC80	IC50	> 100 µM
OC[C@H]1O[C@@H](Oc2cc3c(O)cc(O)cc3[o+]c2-c2ccc(O)c(O)c2)[C@H](O)[C@@H](O)[C@@H]1O	ESR1	array formation, agonist	ERα-GFP PRL-HeLa	1 h	EC50	0.893 µM
COC(=O)c1ccccc1NC(=O)CSc1nnc(-c2ccc(OC)cc2)n1C	CDK2 with cyclin A	–	–	–	Kd	> 100 µM
COc1ccc(-c2oc3c(CC=C(C)C)c(O[C@@H]4O[C@H](CO)[C@@H](O)[C@H](O)[C@H]4O)cc(O)c3c(=O)c2O)cc1	ESR1	array formation, agonist	ERα-GFP PRL-HeLa	1 h	EC50	1.17 µM
CCOc1ccc(C(C)=O)cc1Cc1c(O)nc(N)nc1O	CDK2 with cyclin A	–	–	–	Kd	> 100 µM
CCCN(CCC)S(=O)(=O)c1ccc(C(=O)O)cc1	SLC10A1	taurocholate uptake, inhibitor	NTCP-expressing HEK293	together with: 10 µM taurocholate	Ki	435 ± 114 µM
Cc1c(NC(=O)C2CCCN2S(=O)(=O)c2ccccc2)c(=O)n(-c2ccccc2)n1C (stereo not drawn)	CDK2	binding	–	–	Kd	> 100 µM
Cc1[nH]c(C)c(S(=O)(=O)Nc2ccc(N(C)C)c(Cl)c2)c1C(=O)N1CCC(F)(F)C1	DRD3	β-arrestin recruitment, antagonist, PathHunter	–	together with: dopamine EC80	IC50	> 100 µM

Some of these lines once more:
SMILES	target	test	test system	setting	endpoint	result
O=C(c1c[nH]cc1S(=O)(=O)Nc1ccc(C(F)(F)F)c(Cl)c1)N1CCC(F)(F)C1	DRD3	β-arrestin recruitment, antagonist, PathHunter	–	together with: dopamine EC80	IC50	> 100 µM
OC[C@H]1O[C@@H](Oc2cc3c(O)cc(O)cc3[o+]c2-c2ccc(O)c(O)c2)[C@H](O)[C@@H](O)[C@@H]1O	ESR1	array formation, agonist	ERα-GFP PRL-HeLa	1 h	EC50	0.893 µM
